Measurements of several laboratories.
Each line is one published result; not all experiments were run side by side. ± gives the spread as reported.
Organism: Plasmodium falciparum

`COc1cc(O)c(-c2cc(-c3cc(-c4c(O)cc5c(c4OC)[C@H](C)N[C@H](C)C5)c4cc(C)cc(OC)c4c3O)c(O)c3c(OC)cc(C)cc23)c2c1[C@H](C)N[C@H](C)C2` has an inhibition of over 70% (gametocyte viability, luciferase reporter; NF54-Pfs16-GFP-Luc, late stage IV/V; 5 µM, 48 h).
With `CCCCN1C(=O)c2ccc3c4c(ccc(c24)C1=O)C(=O)N(CCNc1c2ccc(Cl)cc2nc2ccc(OC)cc12)C3=O` the inhibition was about 30% (parasite growth; 3D7; 50 nM, 12 h, schizont stage).
With `C[OH+][Cu-2]12[O]C(c3cn(-c4ccccc4)nc3-c3ccc(C)cc3)=N[N+]1=C(C)c1c(cc(C)oc1=O)[O]2` (stereo not drawn) the parasitaemia suppression was 100% (3D7; 12.5 µg/mL, 72 h).
`CN(C)c1ncnc2c1c(-c1ccc(Oc3ccccc3)cc1)cn2C1CCCC1`: intracellular growth “no effect” (invasion IC50, ring stage).
For `CC[C@H](C)[C@H](NC(=O)[C@@H](NC(=O)[C@H](Cc1ccc(O)cc1)NC(=O)[C@H](CCCCN)NC(=O)[C@H](CCCCN)NC(=O)[C@H](CC(C)C)NC(=O)[C@H](CC(=O)O)NC(=O)[C@H](Cc1ccc(O)cc1)NC(=O)[C@H](CCC(N)=O)NC(=O)[C@H](CCCCN)NC(=O)[C@@H](NC(=O)[C@H](Cc1ccccc1)NC(=O)[C@H](CCCCN)NC(=O)[C@H](CCCCN)NC(=O)[C@H](Cc1c[nH]c2ccccc12)NC(=O)[C@H](CCCCN)NC(=O)[C@H](CCSC)NC(=O)[C@H](CCCNC(=N)N)NC(=O)[C@H](CCCNC(=N)N)NC(=O)[C@H](CC(N)=O)NC(=O)[C@H](CCC(N)=O)NC(=O)[C@H](Cc1ccccc1)NC(=O)[C@H](Cc1c[nH]c2ccccc12)NC(=O)[C@@H](NC(=O)[C@H](CCCCN)NC(=O)[C@@H](NC(=O)[C@H](CCC(N)=O)NC(=O)[C@@H](N)CCCNC(=N)N)[C@@H](C)CC)[C@@H](C)CC)[C@@H](C)CC)[C@@H](C)CC)C(=O)O`, “maximum TUNEL-positive parasites” read about 50% (50 µM, 16 h).
For `CCOC(=O)c1cn(-c2nc(C)n[nH]2)nn1`, the inhibition was 49.3% (parasite growth; NF54; 1 µM, gametocyte).
With `CCN(CC)c1ccc2nc3c4ccccc4/c(=N/c4ccncc4)cc-3oc2c1` the remaining growth was 100% (NF54; 7.81 ng/mL, 6 h, rings, trophozoites, schizonts; baseline: untreated).
`Cc1ccc(NCC(=O)Nc2ccc(F)c(Cl)c2)cc1C(=O)N1CCOCC1` gave an EC50 of over 50 µM (parasite growth; 3D7; blood stage).
`C[OH+][Cu-2]12[O]C(c3cn(-c4ccccc4)nc3-c3ccccc3)=N[N+]1=C(C)c1c(cc(C)oc1=O)[O]2` (stereo not drawn) has a parasitaemia of 0% (3D7; 12.5 µg/mL, 72 h).
For `CNC(=O)[C@@H]1Cc2c([nH]c3ccccc23)[C@@H](c2ccc(Cl)cc2Cl)N1`, “CDP-ME level reduction” read 93 ± 5% (schizont stage; 1 µM, 2 h; baseline: untreated).
With `Cc1ccc(CNC(=O)[C@@H](NC(=O)[C@H](CCc2ccccc2)NC(=O)[C@H](CCc2ccccc2)NCc2cnccn2)C(C)C)cc1` the selectivity ratio was over 226 (D10; 72 h; baseline: HFF EC50 over P. falciparum EC50).
`CC[C@H](C)[C@@H]1NC(=O)[C@H](CCCCN)NC(=O)[C@H](CCCCN)NC(=O)[C@H](Cc2ccc(O)cc2)NC(=O)[C@H](CC(C)C)NC(=O)[C@@H]2CCCN2C(=O)[C@H](C)NC(=O)CNC(=O)CNC(=O)[C@H](CO)NC(=O)CNC(=O)CNC(=O)[C@H](CO)NC(=O)[C@H](CCC(=O)O)NC(=O)[C@H](CC(C)C)NC(=O)[C@H](CC(C)C)NC(=O)[C@H](CCCNC(=N)N)NC(=O)[C@H](CCCCN)NC(=O)[C@H]([C@@H](C)CC)NC(=O)[C@H]([C@@H](C)CC)NC(=O)[C@H](CCCCN)NC(=O)[C@H](CCCCN)NC(=O)[C@H](Cc2ccc(O)cc2)NC(=O)[C@H](CC(C)C)NC(=O)[C@@H]2CCCN2C(=O)[C@H](C)NC(=O)CNC(=O)CNC(=O)[C@H](CO)NC(=O)CNC(=O)CNC(=O)[C@H](CO)NC(=O)[C@H](CCC(=O)O)NC(=O)[C@H](CC(C)C)NC(=O)[C@H](CC(C)C)NC(=O)[C@H](CCCNC(=N)N)NC(=O)[C@H](CCCCN)NC(=O)[C@H]([C@@H](C)CC)NC1=O` has a selectivity index of 2.8 ± 0.9 (3D7; 5 mg/mL Albumax II; baseline: RBC HC10 over P. falciparum IC50).

Excerpt of the above:
For `CCOC(=O)c1cn(-c2nc(C)n[nH]2)nn1`, the inhibition was 49.3% (parasite growth; NF54; 1 µM, gametocyte).
With `CCN(CC)c1ccc2nc3c4ccccc4/c(=N/c4ccncc4)cc-3oc2c1` the remaining growth was 100% (NF54; 7.81 ng/mL, 6 h, rings, trophozoites, schizonts; baseline: untreated).
